Assay results gathered from unrelated publications.
Every numbered part comes from another study and shows a few of its results, in no order.

Series 1 — technique: RNA Bind-n-Seq; form: RNA; matrix: in vitro; tested at: 1 µM; notes: whole 134-nt RNA, ends assumed; together with: 150 mM KCl; baseline: input library; direction: higher = stronger binding
Target: Ras GTPase-activating protein-binding protein 1, RRM domain (G3BP1, Homo sapiens, UniProt Q13283)
Sequence of UniProt Q13283 (whole entry, looked up): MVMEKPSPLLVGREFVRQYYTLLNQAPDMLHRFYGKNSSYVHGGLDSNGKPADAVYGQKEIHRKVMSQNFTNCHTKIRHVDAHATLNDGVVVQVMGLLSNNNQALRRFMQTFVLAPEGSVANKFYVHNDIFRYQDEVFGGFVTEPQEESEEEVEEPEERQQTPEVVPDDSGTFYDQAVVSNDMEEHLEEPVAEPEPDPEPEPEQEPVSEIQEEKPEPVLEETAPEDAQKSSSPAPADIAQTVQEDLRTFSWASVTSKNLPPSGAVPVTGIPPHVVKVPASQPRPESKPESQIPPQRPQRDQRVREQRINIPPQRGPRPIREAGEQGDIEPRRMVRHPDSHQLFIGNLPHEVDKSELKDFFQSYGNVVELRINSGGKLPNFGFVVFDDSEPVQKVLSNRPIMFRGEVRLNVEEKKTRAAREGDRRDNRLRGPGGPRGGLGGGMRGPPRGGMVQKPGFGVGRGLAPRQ
All sequences stand within: GGGAGUUCUACAGUCCGACGAUC … UGGAAUUCUCGGGUGUCAAGG
Oligonucleotide | log2 enrichment
UCCUGUGCUACACAUCGUAUGUACCGAAUCGGGUUUUUUUGGGUUUUUUUGGGAAAGGGAAAGUAUUAUGUUACGCCGUUCGGAUCUGCA | -0.0224
UUAGGGAUGUGGCCAUAGAAUUCUCUCAGGAGGAGUGGAAAUGCCUGGACCCUGCUCAGAGGAUCUUAUACAGGGACGUGAUGUUGGAGA | 0.133
AGUCCUGUGCUACACAUCGUAUGUACCGAAUCGGCCCCGGGCCCCGGGGCCCCGGGGAAAGUAUUAUGUUACGCCGUUCGGAUCUGCACU | -0.581
UCAAGUCCUGUGCUACACAUCGUAUGUACCGAAUCGGAAAGGAAAGGGAAAGGGAAAGUAUUAUGUUACGCCGUUCGGAUCUGCACUUCC | -0.219
GCAGGAAGUAAAAACAAAUGGAAAUGCUUCGGAUAGUGGCAGGGCUGGGGGUUGCUAAGGAAAGGGUGGGAUGGGAGUGGGUAAAGAGUU | 1.33
GCAGGAAGUAAAAACAAAUGGAAAUGCUUCGGAUAGUGGCAGGGGUGGGGGUUGCUAAGGAAAGGAAAGGAUGGGAGUGGGUAAAGAGUU | 1.24
AGUCCUGUGCUACACAUCGUAUGUACCGAAUCGGGUUUUUUUGGGUUUUUGGGUGGGAAAGUAUUAUGUUACGCCGUUCGGAUCUGCACU | 0.261
UCCUGUGCUACACAUCGUAUGUACCGAAUCGGGUUUUUUGGUUUUUUGGGUUUUUUGGGAAAGUAUUAUGUUACGCCGUUCGGAUCUGCA | -0.111
UCCUGUGCUACACAUCGUAUGUACCGAAUCGGGGAAAAAAAGGGGAAAAAGGGGUGGGGAAAGUAUUAUGUUACGCCGUUCGGAUCUGCA | 0.835
UAACUUUAGAGGAGGAUCUGAUGGAUAUGGCAGUGGACGUGGAUUUGGGGAUGGCUAUAAUGGGUAUGGAGGAGGACCUGGGGGUGGCAA | -0.431
GCAGGAAGUAAAAACAAAUGGAAAUGCUUCGGAUAGUGGCAGGGGUGGGGGUUGCUAAGGAAAGGGUGGGAUGGAAGUGGGUAAAGAGUU | 1.01
UCCUGUGCUACACAUCGUAUGUACCGAAUCGGUUUUUUGGGUUUUUUGGGUUUUUUGGGGAAAGUAUUAUGUUACGCCGUUCGGAUCUGC | -0.156
GUCCUGUGCUACACAUCGUAUGUACCGAAUCGGGGCCCCCGGGCCCCCGGGGCCCCCGGAAAGUAUUAUGUUACGCCGUUCGGAUCUGCA | -0.873
CUCAAGUCCUGUGCUACACAUCGUAUGUACCGAAUCGGGGCCGGGCCGGCCGGGAAAGUAUUAUGUUACGCCGUUCGGAUCUGCACUUCC | -0.546

Series 2 — technique: RNA Bind-n-Seq; form: RNA; matrix: in vitro; tested at: 365 nM; baseline: no-protein control; direction: higher = stronger binding
Target: RNA binding protein fox-1 homolog 2, RRM domain, GST-SBP tag (RBFOX2, Homo sapiens, UniProt O43251-10, residues 100-194)
Notes: natural RNA segment, single round, ends assumed
All sequences stand within: GGGAGUUCUACAGUCCGACGAUC … UGGAAUUCUCGGGUGCCAA
Residues (chain): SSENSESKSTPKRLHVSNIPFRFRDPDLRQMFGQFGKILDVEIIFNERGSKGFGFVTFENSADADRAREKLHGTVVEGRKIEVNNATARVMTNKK
Oligonucleotide | RBNS enrichment (R)
GAACUAUUUUUGGAUAAAUUAUAUAUUUUCCUUCCUAGUAGAAGUGUUACUGCCUGUAACUAGCUCAAAAUACCAAUGCAGUUUCUGCAUUCUGGGUUUUGUUUUUCCUU | 0.315
AUUUUCCAUGAGAAACAACAGAGUUAACCUGUGGCAUUAGGAGACCUACUUCAUGUGGACCCUUUUUUUCCUUCAGUUUAACUUUUCUGGAGCAGUGUGCUGCGUAGUUC | 0.296
CCCUGGGUGGAUACUUGAACCAGAGAUCCCGACCCUGCUGCUCCAUCUCAGGAGGCAGCCUUCCUGACCAAGUGUGUUUGACAUGGAGCGCCCUGUGGUGCCCACCUCCA | 0.343
AUGUCGACUUGAUUUCCUUUUAGUAGCAUCUCUCUCUUCCAUGUCUUGAUGUUAUGCAGGAAGUACAAAAGUACUUUAAAAUUUUGUUAUGAAAUAAAAAAAAAAAGGAU | 1.07
UAGUGGUCAGCUCUGAGGGGGGACUGGUGACUCUGAACAGAUCGAUGUCAACAGCCAUGGUGAACCAGAUCUGGGCAGGGUUCCCCAAACUCUAUUCAACCAGAGUUUUA | 0.217
AAGGUUUGUGGGAAAAUGUAGGUGAUUUAGAGAGAACCUUGUGUAGUUUUUCUUACGACUCAGACAGGUGGGAUGGACAGACAGGUGCAUGUUACUGCGUUCUGUGUCGG | 2.73
CUGUUCCGCGUGGUUCCCGCCAAACCUCCCUCGGUCGCCGUGUUCUCCGCAAGCCUCCUGCAGCGCCCGCCUGCCAAUGUGAGGCUGGCACCAGGCUGCAGCCUCCCCAA | 0.342
AUUUCCUACUCUUUUUCUCUAUAUAACUCAUUCUAUUAAAUACAUUGCACCAAAGAGAUAUGGAGACAUAAACCUGUAAUGAAUGAGGCUGGGCUUUUCUGUAAUAAGCU | 0.652
UGGGAUUUACAUGCAGAACAAAAGAUACUGUCAAAGGCUGUGGGGUUGCAGCUCAAAUAUUUAAGUAGCAGGAAGAAUACACAUACUAAAGGUUUUCCACUAAUGGACCA | 0.639
ACUGUAGUCCUAUUGAGAAGACAUUUCGUCUCUGAGAAAAAAGGAUGGAACUAUGGGUUCUCUUCGCAAAGCCAAAGGAUAGUGUUUAACAAGCCAGCUGGCUUAUGCUG | 0.27
CCCCUCAAACUCAAGUGUGAGCUCUGUGGACGGGUGGACUUUGCCUACAAGUUCAAGCGUUCCAAGCGCUUCUGUUCCAUGGCUUGUGCAAAGAGGUAUAAUGUGGGAUG | 0.369
CCUGGUUUAAAACCAACAAUGAUGCCUAGUGAGUAUGUGUCCACAGGCCAUAACAGGGUAGAAGAGAGACAUCGUGCAACCCAAUGAGUAGUGAAGGGACUGUGUUGCUU | 2.12

Series 3 — technique: protein-binding microarray; form: double-stranded DNA, one strand shown; matrix: in vitro; tested at: 2200 nM top; notes: 60-bp whole probe; together with: salmon DNA 0.4 mg/ml; baseline: random background probes; direction: higher = stronger binding; all sequences stand within: GCCTAGCAC … GTCTTGATTCGCTTGACGCTGCTG
Target: Interferon regulatory factor 7, full length, phosphomimetic (IRF7, Homo sapiens, UniProt Q92985, residues 1-503, S471D/S472D/S475D/S476D/S477D/S483D/S484D/S487D)
Target sequence (chain): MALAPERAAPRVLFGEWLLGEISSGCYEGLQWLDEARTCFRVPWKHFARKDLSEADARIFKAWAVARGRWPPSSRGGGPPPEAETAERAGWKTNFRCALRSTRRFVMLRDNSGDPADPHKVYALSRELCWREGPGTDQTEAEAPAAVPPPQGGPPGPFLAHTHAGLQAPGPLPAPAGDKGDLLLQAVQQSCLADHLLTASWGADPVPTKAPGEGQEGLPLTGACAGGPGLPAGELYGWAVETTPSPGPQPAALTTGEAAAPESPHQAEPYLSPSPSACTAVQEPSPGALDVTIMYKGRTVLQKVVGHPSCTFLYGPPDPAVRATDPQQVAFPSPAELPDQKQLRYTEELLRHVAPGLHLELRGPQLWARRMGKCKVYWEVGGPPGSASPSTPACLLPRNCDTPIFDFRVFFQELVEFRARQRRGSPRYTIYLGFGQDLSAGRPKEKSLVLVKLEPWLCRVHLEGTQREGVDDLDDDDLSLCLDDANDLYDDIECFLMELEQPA
Oligonucleotide | fitted relative affinity
TTAGAAATGGGGTTTCGATTAGTGCTA | 2.29 z-score
GGAAGTCCCATGTTGCAGACTGTGCTA | 0.449 z-score
TTAGATTCCATTTTCGATTAGTGCTAG | 7.11 z-score
TTAGGTTTCGGGACTGGGATAGTGCTA | 3.15 z-score
TTAGGTTTCGGTTCCAGTTAGTGCTAG | 10.2 z-score
GACGGATTCGGGTATCGGGACGTGCTA | 0.903 z-score
TTAGATTTCAGTATCCATTAGTGCTAG | 1.07 z-score
TTAGGTTTCGACTACCGGTTAGTGCTA | 3.28 z-score
GAGATCATCCGTTTCTTCTAGTGCTAG | 1.33 z-score
CACGATTTCAGTATCGAGACGTGCTAG | 1.31 z-score
TTAGGACTGAGTCTCGGTTAGTGCTAG | 0.23 z-score
GACGGTTTCCTTAACCTGACGTGCTAG | 1.52 z-score
TCACATTTTGTTTTTCAACTGTGCTAG | 2.66 z-score
TCATATATCTGAACCGCACTGTGCTAG | 0.839 z-score
GACGGTATTCTTTTCCTGACGTGCTAG | 1.09 z-score
TTAGACTCCAGTTTCGATTAGTGCTAG | 6.1 z-score
TTAGGTCTCCTTTTCCATTAGTGCTAG | 1.86 z-score
GACGGTTTCAGTCTCGGGACGTGCTAG | 2.27 z-score
GTGAAATAAGGGAGGCCTAGGTGCTAG | -0.823 z-score
TTAGATATTAAACTGATAGGGTGCTAG | -0.723 z-score
GGCCGTCTGAGCTCCGTAGCGTGCTAG | -0.797 z-score
GACGGACTGGTCACTGGGGACGTGCTA | -1.11 z-score
TTAGTTTTCGACTTTCGGTTAGTGCTA | 11.4 z-score
GACGAACTGAGACTGGAGTCGTGCTAG | 0.01 z-score
GTCTGTTTCCTCTTTCTTTGGTGCTAG | 3.65 z-score

Series 4 — technique: protein binding microarray; form: double-stranded DNA, one strand shown; matrix: in vitro; tested at: not given; baseline: not given; direction: higher = stronger binding
Target: Histone acetyltransferase KAT6A, both winged helices, GST fusion (KAT6A, Homo sapiens, UniProt Q92794, residues 1-181)
Notes: 8-mer, flanks averaged, mean of 2 arrays, mostly near background
Construct (chain): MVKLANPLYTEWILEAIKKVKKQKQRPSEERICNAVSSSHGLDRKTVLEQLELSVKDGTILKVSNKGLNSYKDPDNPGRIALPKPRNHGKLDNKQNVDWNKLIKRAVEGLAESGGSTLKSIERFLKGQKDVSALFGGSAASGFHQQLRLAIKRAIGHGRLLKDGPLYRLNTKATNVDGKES
Oligonucleotide | E-score
CTTAAGCA | 0.0355
AAAAAGAA | -0.129
AATGCGTA | 0.26
CTCAAAGA | 0.0135
GTATCAGA | 0.0239
AGACTACG | -0.00832
ACGTGGCC | -0.165
AAGGTTCA | -0.0873
ACGGCCAC | 0.173
ACTCCTTC | -0.218
CACTGCTC | -0.147
CTAGCATA | -0.0666
CGAACGTA | -0.00723
GTAACATA | -0.0112
AGCCTTGC | -0.0367
GTCGAAAC | 4.5e-05
ACGATCCG | 0.0579
ACGACTAA | -0.141
CGGCCATA | 0.0658
CTATGCAA | -0.085
GAAGTCTC | -0.0984
ATTCATAA | 0.0686
GCGCTAAA | 0.289
GGCAATGA | -0.0824
GCCTTCTA | -0.101

Excerpt of the above (series 1):
Oligonucleotide | log2 enrichment
AGUCCUGUGCUACACAUCGUAUGUACCGAAUCGGCCCCGGGCCCCGGGGCCCCGGGGAAAGUAUUAUGUUACGCCGUUCGGAUCUGCACU | -0.581
UCAAGUCCUGUGCUACACAUCGUAUGUACCGAAUCGGAAAGGAAAGGGAAAGGGAAAGUAUUAUGUUACGCCGUUCGGAUCUGCACUUCC | -0.219
GCAGGAAGUAAAAACAAAUGGAAAUGCUUCGGAUAGUGGCAGGGCUGGGGGUUGCUAAGGAAAGGGUGGGAUGGGAGUGGGUAAAGAGUU | 1.33
GCAGGAAGUAAAAACAAAUGGAAAUGCUUCGGAUAGUGGCAGGGGUGGGGGUUGCUAAGGAAAGGAAAGGAUGGGAGUGGGUAAAGAGUU | 1.24
AGUCCUGUGCUACACAUCGUAUGUACCGAAUCGGGUUUUUUUGGGUUUUUGGGUGGGAAAGUAUUAUGUUACGCCGUUCGGAUCUGCACU | 0.261
UCCUGUGCUACACAUCGUAUGUACCGAAUCGGGUUUUUUGGUUUUUUGGGUUUUUUGGGAAAGUAUUAUGUUACGCCGUUCGGAUCUGCA | -0.111
UCCUGUGCUACACAUCGUAUGUACCGAAUCGGGGAAAAAAAGGGGAAAAAGGGGUGGGGAAAGUAUUAUGUUACGCCGUUCGGAUCUGCA | 0.835
UAACUUUAGAGGAGGAUCUGAUGGAUAUGGCAGUGGACGUGGAUUUGGGGAUGGCUAUAAUGGGUAUGGAGGAGGACCUGGGGGUGGCAA | -0.431
GCAGGAAGUAAAAACAAAUGGAAAUGCUUCGGAUAGUGGCAGGGGUGGGGGUUGCUAAGGAAAGGGUGGGAUGGAAGUGGGUAAAGAGUU | 1.01
UCCUGUGCUACACAUCGUAUGUACCGAAUCGGUUUUUUGGGUUUUUUGGGUUUUUUGGGGAAAGUAUUAUGUUACGCCGUUCGGAUCUGC | -0.156
GUCCUGUGCUACACAUCGUAUGUACCGAAUCGGGGCCCCCGGGCCCCCGGGGCCCCCGGAAAGUAUUAUGUUACGCCGUUCGGAUCUGCA | -0.873
CUCAAGUCCUGUGCUACACAUCGUAUGUACCGAAUCGGGGCCGGGCCGGCCGGGAAAGUAUUAUGUUACGCCGUUCGGAUCUGCACUUCC | -0.546
